Assay results gathered from unrelated publications.
Lines come from different studies, so protocols differ. Several values in a cell are separate wells, animals, samples, runs or records.
Target: Serine/threonine-protein kinase MARK2 (MARK2, Homo sapiens, UniProt Q7KZI7)

SMILES | assay | test system | conditions | how to read | endpoint | value
O=C(Cc1ccc(OCc2ccccc2)cc1)NC1(C(=O)O)CCN(C(=O)c2ccc(-c3cccc(Cl)c3)cc2)CC1 | enzyme activity, inhibitor |  | 10 µM |  | activity vs control | 102%
CS(=O)(=O)Nc1cccc(-c2csc3cnc(Nc4ccc(N5CCN(CCCCCOc6cccc7c6C(=O)N(C6CCC(=O)NC6=O)C7=O)CC5)cc4)nc23)c1 (stereo not shown) | probe labelling, inhibitor, KiNativ chemoproteomics | MOLT-4 | 1 µM |  | inhibition | 5.77%
O=C=[N][Ru-4]123([n]4c5ccc(O)cc5c5c6c(c7cc(F)c[n+]1c7c54)C(=O)NC6=O)[S+]1CC[S+]2CC[S+]3CC1 (stereo not shown) | enzyme activity |  | 100 nM, human enzyme, with: 10 µM ATP | reference: untreated | remaining activity | 54%
C=CC(=O)N1CCc2ccc(-n3c(=O)ccc4cnc5ccc(-c6cnn(C)c6)cc5c43)cc21 | KINOMEscan |  | 1 µM | reference: DMSO control | remaining binding | 87%
C=CC(=O)N1CCCC(n2c(=O)c3ncccc3n(Cc3ccc(Oc4ccccc4)cc3)c2=O)C1 (stereo not shown) | cell-free assay, competition with immobilised ligand |  | 1 µM |  | remaining binding | 94%
CC(C)=CC1OC(C)(C)C2C=C3C(=O)C(Cl)=CC(O)C3C3C(O)C4OC4C(=O)C132 (stereo not shown) | cell-free assay, competition with immobilised ligand |  | 10 µM |  | remaining binding | 90%
CN1CC[C@@H](COc2cnc(C#N)cc2-c2ccn3nc(NC(=O)C4CC4)cc3c2)C1 | enzyme activity, inhibitor |  | 1 µM |  | inhibition | 9%
CNC(=O)C1CCN(c2cc(C)c(F)cc2NC(=O)c2ccc(-c3cc(O)ccc3C)c(C)c2)CC1 | binding, competition with immobilised ligand |  | 1 µM |  | remaining binding | 91%
COc1c(Cl)cccc1Nc1c(-c2ccncc2C#C[C@@]2(C)CCCN2C(=O)/C=C/CN(C)C)[nH]c2c1C(=O)NCC2 | binding, competition with immobilised ligand |  | 3 µM |  | remaining binding | 76%
Cc1cccc(O[C@H]2CCC[C@@H](C(C)CNCc3ccncc3)C2)c1 (relative stereo) | enzyme activity, inhibitor |  | 10 µM |  | inhibition | 10%
NC(=O)C[C@H]1CCc2sc3ncnc(O[C@H]4CC[C@H](N5CCOCC5)CC4)c3c21 | enzyme activity, inhibitor |  | 10 µM |  | inhibition | -3%
O=c1c(-c2ccc(Cl)c(CN3CCOCC3)c2)coc2cc(O)ccc12 | enzyme activity, inhibitor |  | 1 µM |  | remaining activity | 107%
COc1cc(Nc2nccc(-c3cnn4nc(OC)ccc34)n2)cc(C(F)(F)F)c1 | binding, competition with immobilised ligand |  | 1 µM |  | remaining binding | 100%
C=CC(=O)Nc1cccc(-c2cnc3[nH]cc(C(=O)NC(C)(C)C)c3n2)c1 | kinase activity |  | 0.1 µM |  | inhibition | 43% and 41%
COc1ccc(NC(=O)Nc2ccc3c(c2)C(=O)N(C(C)CO)CC(C)C(CN(C)Cc2ccc4c(c2)OCO4)O3)cc1 (stereo not shown) | kinase activity |  | 0.03 µM | reference: control | remaining activity | 89%
CCN1CCN(Cc2ccc(C(=O)Nc3ccc(C)c(NCc4cnc5[nH]ccc5c4OC)c3)cc2C(F)(F)F)CC1 | binding, competition with immobilised ligand |  | 1 µM |  | remaining binding | 100%
